Measurements pooled from the literature.
Each numbered part is a random draw from the data of one study; scales do not carry over between parts. Changes are numbered by the printed parent chain.
UniProt O24410, sequence (whole entry, looked up): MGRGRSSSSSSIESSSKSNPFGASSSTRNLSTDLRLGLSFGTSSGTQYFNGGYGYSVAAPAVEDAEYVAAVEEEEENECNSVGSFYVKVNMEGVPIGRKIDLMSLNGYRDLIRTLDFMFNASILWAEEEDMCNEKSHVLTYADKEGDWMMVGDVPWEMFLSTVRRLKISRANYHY
UniProt Q9ZSY8, sequence (whole entry, looked up): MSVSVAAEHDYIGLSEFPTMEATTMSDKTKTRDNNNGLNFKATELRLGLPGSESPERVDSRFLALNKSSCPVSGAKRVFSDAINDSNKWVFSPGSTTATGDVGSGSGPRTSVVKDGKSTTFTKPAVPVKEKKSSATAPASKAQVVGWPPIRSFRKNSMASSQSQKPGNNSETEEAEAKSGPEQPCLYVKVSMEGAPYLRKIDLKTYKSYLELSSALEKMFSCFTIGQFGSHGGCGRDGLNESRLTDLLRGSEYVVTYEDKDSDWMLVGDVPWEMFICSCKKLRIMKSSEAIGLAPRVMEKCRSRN
UniProt O24407, sequence (whole entry, looked up): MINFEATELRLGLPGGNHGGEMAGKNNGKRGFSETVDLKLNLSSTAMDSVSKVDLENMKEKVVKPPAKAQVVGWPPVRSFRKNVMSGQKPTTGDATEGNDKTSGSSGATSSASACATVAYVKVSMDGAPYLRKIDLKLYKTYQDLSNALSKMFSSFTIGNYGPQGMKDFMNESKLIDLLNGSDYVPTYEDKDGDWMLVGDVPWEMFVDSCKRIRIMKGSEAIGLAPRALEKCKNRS
UniProt Q9C966, sequence (whole entry, looked up): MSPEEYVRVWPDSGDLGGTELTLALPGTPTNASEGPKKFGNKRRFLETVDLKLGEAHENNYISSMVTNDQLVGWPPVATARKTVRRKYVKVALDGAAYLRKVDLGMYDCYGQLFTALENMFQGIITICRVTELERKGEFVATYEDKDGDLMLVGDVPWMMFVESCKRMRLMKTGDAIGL
UniProt O23661, sequence (whole entry, looked up): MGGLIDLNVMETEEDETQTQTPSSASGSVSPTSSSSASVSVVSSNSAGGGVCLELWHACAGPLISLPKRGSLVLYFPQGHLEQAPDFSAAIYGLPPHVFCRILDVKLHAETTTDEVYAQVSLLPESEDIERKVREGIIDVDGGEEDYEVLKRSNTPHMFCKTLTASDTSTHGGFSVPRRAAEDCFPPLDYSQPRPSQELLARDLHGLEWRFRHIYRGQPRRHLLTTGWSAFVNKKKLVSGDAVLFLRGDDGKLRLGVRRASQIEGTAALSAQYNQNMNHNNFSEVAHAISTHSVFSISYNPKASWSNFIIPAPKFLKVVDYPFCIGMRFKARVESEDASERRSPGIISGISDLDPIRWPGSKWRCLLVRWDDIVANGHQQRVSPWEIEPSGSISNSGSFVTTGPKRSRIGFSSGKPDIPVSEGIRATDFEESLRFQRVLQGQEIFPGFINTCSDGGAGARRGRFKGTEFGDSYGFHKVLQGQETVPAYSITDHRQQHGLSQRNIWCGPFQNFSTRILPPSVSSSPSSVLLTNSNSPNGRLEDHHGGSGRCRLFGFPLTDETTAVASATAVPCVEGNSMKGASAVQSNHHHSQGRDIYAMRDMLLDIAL
UniProt P93022, sequence (whole entry, looked up): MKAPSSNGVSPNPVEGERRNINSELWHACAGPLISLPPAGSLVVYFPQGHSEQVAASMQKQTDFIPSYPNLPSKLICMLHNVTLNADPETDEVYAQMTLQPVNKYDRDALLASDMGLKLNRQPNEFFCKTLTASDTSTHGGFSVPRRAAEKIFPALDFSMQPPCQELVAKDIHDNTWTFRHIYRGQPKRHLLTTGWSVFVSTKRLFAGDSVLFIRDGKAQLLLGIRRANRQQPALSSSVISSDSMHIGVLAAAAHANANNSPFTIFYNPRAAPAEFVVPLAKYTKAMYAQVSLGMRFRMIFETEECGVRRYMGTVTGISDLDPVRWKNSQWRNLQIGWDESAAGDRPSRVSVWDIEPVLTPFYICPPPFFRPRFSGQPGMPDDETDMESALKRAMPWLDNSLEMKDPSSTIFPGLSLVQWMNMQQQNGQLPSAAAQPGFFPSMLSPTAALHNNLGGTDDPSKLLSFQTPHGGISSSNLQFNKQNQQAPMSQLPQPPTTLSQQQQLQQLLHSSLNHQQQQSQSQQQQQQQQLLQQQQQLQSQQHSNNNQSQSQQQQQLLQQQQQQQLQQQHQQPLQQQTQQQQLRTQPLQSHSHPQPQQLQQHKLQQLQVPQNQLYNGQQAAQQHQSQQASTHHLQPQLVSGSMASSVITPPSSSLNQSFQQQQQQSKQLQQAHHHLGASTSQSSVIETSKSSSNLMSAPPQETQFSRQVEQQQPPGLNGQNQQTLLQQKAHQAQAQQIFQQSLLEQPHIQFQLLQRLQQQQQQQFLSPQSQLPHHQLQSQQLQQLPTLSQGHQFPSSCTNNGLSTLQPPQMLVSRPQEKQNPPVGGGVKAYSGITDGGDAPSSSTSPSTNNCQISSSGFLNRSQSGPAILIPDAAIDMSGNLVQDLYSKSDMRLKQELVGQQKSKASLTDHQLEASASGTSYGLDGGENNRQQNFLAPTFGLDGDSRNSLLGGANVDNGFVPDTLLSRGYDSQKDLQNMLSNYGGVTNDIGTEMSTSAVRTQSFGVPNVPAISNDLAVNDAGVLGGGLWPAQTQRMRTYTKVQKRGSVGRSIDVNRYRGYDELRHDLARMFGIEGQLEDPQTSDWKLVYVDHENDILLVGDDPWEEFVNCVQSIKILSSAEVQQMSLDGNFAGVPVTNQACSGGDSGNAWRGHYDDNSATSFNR
UniProt Q9C7I9, sequence (whole entry, looked up): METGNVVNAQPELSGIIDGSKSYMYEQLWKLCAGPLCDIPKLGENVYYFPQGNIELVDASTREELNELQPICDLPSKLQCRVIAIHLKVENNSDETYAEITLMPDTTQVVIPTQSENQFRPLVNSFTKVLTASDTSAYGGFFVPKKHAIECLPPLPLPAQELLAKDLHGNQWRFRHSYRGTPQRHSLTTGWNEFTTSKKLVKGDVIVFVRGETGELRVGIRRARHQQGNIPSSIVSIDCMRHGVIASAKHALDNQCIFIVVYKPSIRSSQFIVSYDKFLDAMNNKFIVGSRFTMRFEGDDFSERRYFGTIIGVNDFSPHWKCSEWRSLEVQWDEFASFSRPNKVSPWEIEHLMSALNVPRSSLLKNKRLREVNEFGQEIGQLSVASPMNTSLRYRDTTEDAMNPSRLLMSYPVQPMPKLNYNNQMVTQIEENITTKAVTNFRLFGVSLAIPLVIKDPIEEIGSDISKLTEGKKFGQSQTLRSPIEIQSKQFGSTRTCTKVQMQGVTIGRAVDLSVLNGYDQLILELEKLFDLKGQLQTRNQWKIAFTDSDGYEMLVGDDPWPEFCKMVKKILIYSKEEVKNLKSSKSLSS
UniProt Q84WU6, sequence (whole entry, looked up): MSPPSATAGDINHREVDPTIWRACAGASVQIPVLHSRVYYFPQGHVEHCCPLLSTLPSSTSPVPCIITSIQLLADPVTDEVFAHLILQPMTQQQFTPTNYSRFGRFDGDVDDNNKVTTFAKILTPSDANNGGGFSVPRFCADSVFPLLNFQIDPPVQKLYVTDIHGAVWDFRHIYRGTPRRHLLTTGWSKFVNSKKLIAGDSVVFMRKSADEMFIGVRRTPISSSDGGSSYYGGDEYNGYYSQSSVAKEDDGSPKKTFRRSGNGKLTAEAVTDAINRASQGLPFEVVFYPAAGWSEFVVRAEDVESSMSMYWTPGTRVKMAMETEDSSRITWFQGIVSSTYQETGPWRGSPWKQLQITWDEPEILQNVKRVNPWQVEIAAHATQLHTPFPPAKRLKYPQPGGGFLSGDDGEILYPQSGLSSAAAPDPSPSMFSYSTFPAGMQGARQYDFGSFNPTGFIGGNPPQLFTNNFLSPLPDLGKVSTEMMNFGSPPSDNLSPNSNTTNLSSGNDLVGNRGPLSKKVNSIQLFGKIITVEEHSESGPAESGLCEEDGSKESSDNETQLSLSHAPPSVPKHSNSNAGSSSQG

Block 1 — method: protein binding microarray; form: double-stranded DNA, one strand shown; medium: in vitro; concentration: not given; baseline: not given; reading: higher = stronger binding
Target: Histone acetyltransferase KAT6A, both winged helices, GST fusion (KAT6A, Homo sapiens, UniProt Q92794, residues 1-181)
Setting: 8-mer, flanks averaged, mean of 2 arrays, mostly near background
Target sequence (chain): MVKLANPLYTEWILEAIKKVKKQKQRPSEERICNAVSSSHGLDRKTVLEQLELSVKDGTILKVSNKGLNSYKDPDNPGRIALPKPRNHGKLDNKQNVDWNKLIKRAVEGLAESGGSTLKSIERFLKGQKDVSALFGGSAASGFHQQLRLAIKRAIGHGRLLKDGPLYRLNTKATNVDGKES
Oligonucleotide	E-score
AAGGCTCG	-0.101
ACCAGGGC	0.021
ACAGAATG	-0.08
CTTTACCA	-0.0924
ATGACCCA	-0.227
CTGCTAAG	-0.251
CAGGAGCA	-0.191
TCCCCAGA	-0.289

Block 2 — method: two-hybrid; reading: higher = firmer interaction
Substance: IAA9 (Arabidopsis thaliana, UniProt Q38827)
UniProt Q38827, sequence (whole entry, looked up): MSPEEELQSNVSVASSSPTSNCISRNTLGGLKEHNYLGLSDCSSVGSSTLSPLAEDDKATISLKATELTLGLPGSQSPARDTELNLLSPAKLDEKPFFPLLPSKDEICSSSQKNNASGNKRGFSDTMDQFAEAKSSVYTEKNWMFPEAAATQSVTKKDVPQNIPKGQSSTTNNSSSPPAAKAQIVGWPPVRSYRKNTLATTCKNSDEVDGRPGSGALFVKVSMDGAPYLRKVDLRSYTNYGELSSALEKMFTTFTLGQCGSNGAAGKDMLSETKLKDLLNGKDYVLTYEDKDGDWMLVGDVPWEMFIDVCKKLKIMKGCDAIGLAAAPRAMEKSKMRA
partner	setting	how to read	positive tests
IAA16 (Arabidopsis thaliana, UniProt O24407)	–	baseline: out of 2 tests	2
IAA27 (Arabidopsis thaliana, UniProt Q9ZSY8)	–	baseline: out of 2 tests	2
ARF20 484-590 (Arabidopsis thaliana, UniProt Q9C7I9)	–	baseline: out of 2 tests	0
ETT (Arabidopsis thaliana, UniProt O23661)	–	baseline: out of 4 tests	2
ARF17 (Arabidopsis thaliana, UniProt Q84WU6)	weak activation fusion	baseline: out of 2 tests	1
IAA20 (Arabidopsis thaliana, UniProt O24410)	weak activation fusion	baseline: out of 0 tests	0
IAA15 (Arabidopsis thaliana, UniProt Q9C966)	–	baseline: out of 2 tests	2
ARF7 1030-1164 (Arabidopsis thaliana, UniProt P93022)	–	baseline: out of 0 tests	0

Block 3 — observed: peptide-MHC binding; form: peptide; concentration: concentration not given
Target: HLA class I histocompatibility antigen, A alpha chain, allele A*25:01 (Homo sapiens, UniProt P04439)
Sequence	binding
STYQFSLMQ	inactive
SVFELSNFA	inactive
YRTLGVFRY	inactive
LQKIPLQWF	inactive
LPADPASVL	inactive
FKYDSTKPL	inactive
FPSNMMVVT	inactive
TEFFMSRKL	inactive
LAIVTTPLV	inactive
YFTFDLTAL	inactive
VTDTALAYF	inactive
LPEAYQWHI	inactive
TKAGMAQYL	inactive
CLSPVVAGL	inactive
SMLCWLGMT	inactive
LVTMGTGTFGR	inactive
MAMTGLPQA	inactive
STTTCEAGV	inactive

Block 4 — target: CCNB3, cyclin fold, Cln2 fusion (human); method: yeast growth competition, sequencing; medium: yeast; setting: strong parent motif; baseline: not given; reading: higher = stronger binding; starting sequence: viral docking peptide; YKVKRRLVFGADD
Variant	normalised enrichment score
K2M	2.16
V3R	-0.0102
Y1A	0.903
L7K	-0.275
V3Q	0.323
G10F	0.896
F9S	-0.0891
L7H	-0.303
F9L	0.363
K4F	0.322
F9P	-0.139
V3T	0.278
R5H	0.14
A11K	1.59
G10M	1.14
K4Y	0.714
V3K	-0.382
G10A	1.24
V3E	-0.0399
R6H	0.195
D12S	1.66
L7T	-0.133
A11T	2.37
V8L	1.28

Repeated from above (block 2):
partner	setting	how to read	positive tests
IAA16 (Arabidopsis thaliana, UniProt O24407)	–	baseline: out of 2 tests	2
IAA27 (Arabidopsis thaliana, UniProt Q9ZSY8)	–	baseline: out of 2 tests	2
ARF20 484-590 (Arabidopsis thaliana, UniProt Q9C7I9)	–	baseline: out of 2 tests	0
ETT (Arabidopsis thaliana, UniProt O23661)	–	baseline: out of 4 tests	2
ARF17 (Arabidopsis thaliana, UniProt Q84WU6)	weak activation fusion	baseline: out of 2 tests	1
